Results of several laboratories.
Each line is one published result; not all experiments were run side by side. ± gives the spread as reported.
T1: ssDNA, aptamer; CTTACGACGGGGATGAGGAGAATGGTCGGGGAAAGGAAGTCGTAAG

CN(C(=O)n1cnc(-c2ccc[n+]([O-])c2)c1)C1CCCCC1 has a potency ratio of 4 to 6 (FAAH (Homo sapiens, UniProt O00519); enzyme activity, inhibitor; COS cells expressing human FAAH; 1 h; reference: whole cells over membrane preparation).
For CNCCN1CCN(c2cnc3c(cc(C(=O)NCc4ccc(Cl)cc4)c(=O)n3CC(=O)N3CC(C)(F)C3)n2)C1=O.Cl, the Hill slope was 0.87 (DNA polymerase catalytic subunit (Human cytomegalovirus, UniProt P08546); enzyme activity, inhibitor).
CCCNc1nc(C#Cc2ccc(Cl)s2)nc2c1ncn2[C@H]1[C@H](O)[C@H](O)[C@]2(C(=O)NC)C[C@H]12 has an activity of 158% (ADORA3 (Homo sapiens, UniProt P0DMS8); receptor activation, agonist; 10 µM; reference: control).
OCCc1ccccc1 gave a relative fluorescence of 71.2% (uncharacterized protein (Spodoptera exigua, UniProt F1CEY0); binding, competitor, fluorescence displacement; 20 µM, pH 7.4, with: 1-NPN 20 µM; reference: 1-NPN alone).
Cc1nc(CSc2nc(SCc3ccc(C(C)C)cc3)nc(=O)[nH]2)cs1: “mean decatenated DNA” 19% (TOP2A (Homo sapiens, UniProt P11388); decatenation; 31.25 µM).
CN1CCN(c2cc(-c3ccncc3)c(-c3ccc4ccccc4c3)nn2)CC1 has an activation of -0.5% (PTGFR (Homo sapiens, UniProt P43088); agonist, FLIPR; 12.5 µM).
CC(=O)N[C@H](C(=O)N1C[C@H](O)C[C@H]1C(=O)NCc1ccc(-c2scnc2C)cc1)C(C)(C)SCCCCCCNC(=O)C[C@@H]1N=C(c2ccc(Cl)cc2)c2c(sc(C)c2C)-n2c(C)nnc21 has a ΔH of -2.61 ± 0.05 kcal/mol (BRD2/VHL, BD1; with VCB (Homo sapiens, UniProt P25440+P40337); ITC; 25 °C, BRD2 BD1, ternary).
N[C@H](CNC(=O)c1ccc(-c2ccccc2Br)s1)C(=O)O has a log EC50 of -1.9 µM (Glutamate receptor ionotropic, NMDA 1, with GluN2C (Grin1, Rattus norvegicus, UniProt P35439, V689I); receptor activation; rat; with: glutamate 300 µM).
CC(=O)Nc1ccc(O)cc1 — result for “chemical shift change”: -0.127 ppm (BRD4 (Homo sapiens, UniProt O60885); 19F NMR, measured: tyrosine 97; 188 µM; reference: free protein).
The remaining binding of C=CC(=O)N1CCC(COCC(=O)N2CCN(c3nc(-c4cnc(N)nc4C(F)F)nc(N4CCOC[C@@H]4C)n3)CC2)CC1 is reported as 1.2% (Tyrosine-protein kinase JAK1, JH2 pseudokinase domain (JAK1, Homo sapiens, UniProt P23458); KINOMEscan; 1 µM; reference: DMSO control).
Under “normalised MST signal”, NCCS(=O)(=O)O is recorded as 0.00234 (SLC6A6 (Homo sapiens, UniProt P31641, Y138A); binding, microscale thermophoresis; 500 µM, room temperature, with: 50 nM labelled protein; higher = more binding).
For CC(C)C[C@H](NC(=O)C[C@H](O)[C@H](CC(C)C)NC(=O)[C@H](Cc1c[nH]cn1)NC(=O)CNC(=O)[C@@H](NC(=O)[C@H](C)NC(=O)[C@H](Cc1c[nH]c2ccccc12)NC(=O)[C@H](CCC(N)=O)NC(=O)[C@@H](Cc1ccccc1)NC(=O)COCCOCCNC(=O)CCC(C(=O)O)N1CCN(CC(=O)O)CCN(CC(=O)O)CCN(CC(=O)O)CC1)C(C)C)C(N)=O (stereo partly drawn) [lutetium-177 labelled], the tissue uptake was 0.05 ± 0.04 %ID/g (female BALB/c nu/nu mice, pancreas; intravenous, 50 pmol, 24 h).
Nc1ncnc2c1ncn2[C@@H]1O[C@H](COP(=O)(O)OP(=O)(O)OP(=O)(O)O)[C@@H](O)[C@H]1O has a Kd of 700 nM (T1, ssDNA, aptamer; ITC).
CC1CCCN(C(=O)c2cc3ncccn3n2)C1 (stereo not drawn) — result for “log fold enrichment”: -0.0792 (DNA mismatch repair protein Msh6 (Homo sapiens, UniProt P52701); binding, affinity selection mass spectrometry; reference: other proteins in batch).
OC[C@H]1O[C@@H](Oc2cc3c(O)cc(O)cc3[o+]c2-c2cc(O)c(O)c(O)c2)[C@H](O)[C@@H](O)[C@@H]1O — result for “binding entropy change”: -0.01 kJ/(mol·K) (Albumin (ALB, Homo sapiens, UniProt P02768); van't Hoff analysis; concentration not given).
For Cn1cc(-c2ccc(-c3cncc(Cl)c3N3CCC4(CCNC4=O)CC3)cc2)cn1, “log2 fold change” read -2.13 (COLO 205; gene expression, microarray, measured: VIL1 mRNA; concentration not given, 2 h; reference: untreated cells).
The remaining activity of O=C(O)c1ccc(Nc2ncc3c(n2)-c2ccc(Cl)cc2C(c2c(F)cccc2F)=NC3)cc1 is reported as 52% (FGFR2(h); kinase activity; 1 µM).
For CC[C@H](C)[C@@H]1NC(=O)[C@H](Cc2ccc(-c3ccccc3)cc2)NC(=O)[C@H](COC)NC(=O)[C@@H]2CCCN2C(=O)[C@@H](NC(=O)[C@H](CCCNC(=N)N)NC(=O)[C@H](CCCNC(=N)N)NC(C)=O)CSSC[C@@H](C(=O)N[C@@H](CCCNC(=N)N)C(=O)N[C@@H](CCCNC(=N)N)C(N)=O)NC(=O)[C@H](C(C)C)NC(=O)[C@@H]2CCCN2C(=O)[C@H](CC(=O)O)NC(=O)[C@H](Cc2ccc(O)cc2)NC(=O)[C@H](CO)NC1=O, “lowest bound protein concentration” read 0.62 µM (GTPase KRas, GDP-bound (KRAS, Homo sapiens, UniProt P01116, G12D); affinity selection mass spectrometry; mixture library 3, with: protein titration up to 2.5 µM; lower is stronger binding).

For quick reference, copied from above:
Under “normalised MST signal”, NCCS(=O)(=O)O is recorded as 0.00234 (SLC6A6 (Homo sapiens, UniProt P31641, Y138A); binding, microscale thermophoresis; 500 µM, room temperature, with: 50 nM labelled protein; higher = more binding).
For CC(C)C[C@H](NC(=O)C[C@H](O)[C@H](CC(C)C)NC(=O)[C@H](Cc1c[nH]cn1)NC(=O)CNC(=O)[C@@H](NC(=O)[C@H](C)NC(=O)[C@H](Cc1c[nH]c2ccccc12)NC(=O)[C@H](CCC(N)=O)NC(=O)[C@@H](Cc1ccccc1)NC(=O)COCCOCCNC(=O)CCC(C(=O)O)N1CCN(CC(=O)O)CCN(CC(=O)O)CCN(CC(=O)O)CC1)C(C)C)C(N)=O (stereo partly drawn) [lutetium-177 labelled], the tissue uptake was 0.05 ± 0.04 %ID/g (female BALB/c nu/nu mice, pancreas; intravenous, 50 pmol, 24 h).
